Assay results gathered from unrelated publications.
Lines come from different studies, so protocols differ. ± gives the spread as reported.

| SMILES | target or system | test | system | conditions | scale | endpoint | value |
| --- | --- | --- | --- | --- | --- | --- | --- |
| COC1CN([C@H]2CC[C@H]([C@@]3(C)Oc4c(Cl)cc(C(=O)NCc5c(SC)cc(C)[nH]c5=O)c(C)c4O3)CC2)C1 | – | RNA-seq, item: PXDC1 mouse homolog | mouse, HT-1376 xenograft, whole blood | dose not given | relative to: vehicle | log2 fold change | 1.59 |
| Nc1ncc(-c2cc(-c3cnn(CC(F)(F)F)c3)ncc2F)nc1C(=O)NC1CNCC(F)C1 (stereo not shown) | NEK10 | KINOMEscan | – | 1 µM | relative to: DMSO control | remaining binding | 47% |
| CCN(CC)CC(=O)Nc1cccc(-n2cc(-c3ccc4ccc(-c5cn(-c6cccc(NC(=O)CN(CC)CC)c6)nn5)cc4c3)nn2)c1 | RCC4 | PCR angiogenesis array, item: SERPINE1 | – | 5 x IC50, 4 h, normoxia | relative to: untreated | fold regulation | -1.34 |
| C=CC(=O)Nc1cccc(Cn2ncc3cnc(Nc4cnn(CCOC)c4)nc32)c1 | PAK1 human | binding, KINOMEscan | – | 100 nM | lower = stronger binding | percent of control | 100% |
| C=CC(=O)N1[C@@H](c2ccc3c(c2)OCO3)c2[nH]c3ccccc3c2C[C@H]1C(=O)N1CCN(C)CC1 | human cyclin E1 N112C-3xFLAG:CDK2 | co-IP with TMT proteomics, item: THRAP3 | – | concentration not given, Q9Y2W1 | relative to: wild type DMSO | relative co-enrichment | 144% |
| CN1CCCNC(=O)c2cccc(c2)C(=O)NCCCN(C)CCCNc2cccc3c2C(=O)c2cccc(c2C3=O)NCCC1 | SAS | RNA-Seq, item: LUC7L2 mRNA | – | 1 µM, 6 h | relative to: untreated cells | log2 fold change | -0.824 |
| Cn1ncc2cc(-c3cncc(Cl)c3N3CCC4(CCNC4=O)CC3)ccc21 | LS174T | gene expression, microarray, item: CIITA mRNA | – | concentration not given, 24 h | relative to: untreated cells | log2 fold change | -2.6 |
| CNS(=O)(=O)Nc1nccc(Cc2c(C)c3ccc(Oc4ncccc4F)cc3oc2=O)c1F | Rec1 | cell viability | – | 7 days | – | IC50 | 0.631 µM |
| C=C(NC(=O)c1csc(-c2nc3c(cc2O)-c2nc(cs2)C(=O)NC(C(C)O)C(=O)NC(=C(C)OC)c2nc(cs2)C(=O)NC2c4nc(cs4)C(=O)NC(COC(=O)c4c5c6c(cccc6n4O)COC(=O)C(OC4CC(C)(O)C(N(C)C)C(C)O4)C2OC5)c2nc-3cs2)n1)C(N)=O (stereo not shown) | Staphylococcus aureus | – | ATCC 43300 MRSA | 1 x MIC, 1 h exposure | – | post-antibiotic effect | 0.49 ± 0.1 h |
| Cc1ncsc1-c1ccc(C(C)NC(=O)C2CC(O)CN2C(=O)C(NC(=O)CCCCCCCCCCN2CCCC(Nc3ncc(Cl)c(Nc4ccccc4S(=O)(=O)C(C)C)n3)C2)C(C)(C)C)cc1 (stereo not shown) | 22Rv1 | RNA-seq, item: RNASEL mRNA | – | concentration not given | relative to: DMSO | log2 fold change | -1.18 |

Repeated from above:
| SMILES | target or system | test | system | conditions | scale | endpoint | value |
| --- | --- | --- | --- | --- | --- | --- | --- |
| CN1CCCNC(=O)c2cccc(c2)C(=O)NCCCN(C)CCCNc2cccc3c2C(=O)c2cccc(c2C3=O)NCCC1 | SAS | RNA-Seq, item: LUC7L2 mRNA | – | 1 µM, 6 h | relative to: untreated cells | log2 fold change | -0.824 |
